Measured values collected from several papers.
Every numbered part comes from another study and shows a few of its results, in no order.

Sample 1 — method: RNA Bind-n-Seq; form: RNA; medium: in vitro; tested at: 365 nM; baseline: no-protein control; direction: higher = stronger binding
Target: RNA binding protein fox-1 homolog 2, RRM domain, GST-SBP tag (RBFOX2, Homo sapiens, UniProt O43251-10, residues 100-194)
Notes: natural RNA segment, single round, ends assumed
Constant ends, left off below: GGGAGUUCUACAGUCCGACGAUC … UGGAAUUCUCGGGUGCCAA
Residues (chain): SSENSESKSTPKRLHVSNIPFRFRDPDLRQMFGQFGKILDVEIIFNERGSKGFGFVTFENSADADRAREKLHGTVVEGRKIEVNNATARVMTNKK
Sequence | RBNS enrichment (R)
AUAUAUGUGUAAUUCCAGCACUGGGAGGAGGACAAAGGGCAAUCAGGAGUUCAAGGCCAGCCUUAGCUAUAUAGUGAGUUUGAAGCCAGCCUGGGCUACAUGUAACCUUC | 0.226
CGAAAUAUGGCCAAAGAUGUGCAGAACACAUUCUAUGACAUCGUGGCCGAGUUUGGGCCCAUGGAGCACACCCAGGCUGUGGACUAUGUUAAGAAGCUCAUGACCAAGGG | 0.233
UCCAAACUGAAAUUAUCUGCUUUCUGCAUUAGAAUGUAAGCCCCCUGAGGGUUGAGUCAGUCUGUCUUGUUUGCUGUGCCACGCCUGAUGCCCAGCCCAGCAGCAUGCUU | 5.6
GCGGAGGGUUGGGGGCAUGGUCUGCAGGCUCAUCUGUGUCCGCCUUUCACUCCACUAAUGCUGUCUCAGUGUUUUCUCUCUCUCUCUUUCGAGCUUGCACUCCGGUACCC | 0.411
CUCGGGAAAGCAAAGAAGCUGCUUUAAAAAAUAAAAAGGGGACUAAAAAUUUGUUUUGUAUAAAGAGGUUAGCCCUGCGCACGUAGGACUGAAUUCAGUGAUAUCCCUAU | 1.96

Sample 2 — method: competition protein-binding microarray; form: double-stranded DNA, one strand shown; medium: in vitro; tested at: 2 µM; added: Pho4 competitor, 0.05 µM; direction: higher = stronger binding; constant ends, left off below: … GTCTTGATTCGCTTGACGCTGCTG
Target: Centromere-binding protein 1, full length, His-tagged (CBF1, Saccharomyces cerevisiae, UniProt P17106, residues 1-351)
Sequence of UniProt P17106 (whole entry, looked up): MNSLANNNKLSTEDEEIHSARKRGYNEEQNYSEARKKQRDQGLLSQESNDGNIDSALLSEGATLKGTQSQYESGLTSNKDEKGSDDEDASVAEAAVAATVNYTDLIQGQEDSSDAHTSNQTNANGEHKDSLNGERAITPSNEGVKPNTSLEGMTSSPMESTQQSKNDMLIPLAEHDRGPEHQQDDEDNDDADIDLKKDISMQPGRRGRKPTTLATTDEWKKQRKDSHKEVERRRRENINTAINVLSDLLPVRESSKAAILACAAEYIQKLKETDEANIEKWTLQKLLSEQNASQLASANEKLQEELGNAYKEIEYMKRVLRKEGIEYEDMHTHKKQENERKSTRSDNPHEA
Notes: whole 60-bp probe, lowest competitor level
Sequence | fluorescence intensity [a.u.]
CAATGAATATACTGCAACGTGCCGATTGAATCCTAT | 182
AGAATAATGTAAGGTACCGTGGGTACCGTACCATCA | 54
GCCCTCAAAAAACACAACGTGCGGATAACGACAACG | 138
AAAAAAAAATGTGAAAACGTGATGGCATTTTTTACA | 573
AATCGTTGGCACCATCACGGGATTTTGACGAGGGGA | 315

Sample 3 — method: RNA Bind-n-Seq; form: RNA; medium: in vitro; tested at: 1 µM; notes: whole 134-nt RNA, ends assumed; added: 150 mM KCl; baseline: input library; direction: higher = stronger binding
Target: Ras GTPase-activating protein-binding protein 1, RRM domain (G3BP1, Homo sapiens, UniProt Q13283)
Sequence of UniProt Q13283 (whole entry, looked up): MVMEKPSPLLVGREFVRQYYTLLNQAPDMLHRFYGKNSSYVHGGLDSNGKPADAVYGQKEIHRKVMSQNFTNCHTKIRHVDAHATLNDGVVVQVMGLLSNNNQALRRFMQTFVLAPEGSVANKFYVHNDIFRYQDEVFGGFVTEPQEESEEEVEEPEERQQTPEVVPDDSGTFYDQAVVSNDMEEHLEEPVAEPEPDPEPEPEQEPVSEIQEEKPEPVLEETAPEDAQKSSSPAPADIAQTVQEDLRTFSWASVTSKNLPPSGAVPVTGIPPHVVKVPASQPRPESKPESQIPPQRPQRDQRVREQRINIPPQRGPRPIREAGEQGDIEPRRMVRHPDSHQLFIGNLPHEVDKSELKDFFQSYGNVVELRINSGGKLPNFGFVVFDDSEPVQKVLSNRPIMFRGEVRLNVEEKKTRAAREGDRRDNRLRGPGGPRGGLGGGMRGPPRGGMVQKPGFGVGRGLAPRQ
Sequence | log2 enrichment
GGGAGUUCUACAGUCCGACGAUCUGAAGCGAGAAGCUGCCCUACCCCCAGUGAGCCCCCUGAAGGCGGCUCUCUCUGAGGAGGAGUUAGAGAAGAAAUCCAAGGCUAUCAUUGUGGAAUUCUCGGGUGUCAAGG | -0.197
GGGAGUUCUACAGUCCGACGAUCAAGUCCUGUGCUACACAUCGUAUGUACCGAAUCGGUUUUUUUGGUGGAAAAAAAGGAAAGUAUUAUGUUACGCCGUUCGGAUCUGCACUUUGGAAUUCUCGGGUGUCAAGG | -0.202
GGGAGUUCUACAGUCCGACGAUCCACAGACAACACGCACCCACCCAGACACAGAGGGAAGGGGUUGGGAUGGGGACAGGGUGCACAGCAGGGCGGGGUAGGACCCCAGCCCCUUGGAAUUCUCGGGUGUCAAGG | -0.00723
GGGAGUUCUACAGUCCGACGAUCCCUGUGCUACACAUCGUAUGUACCGAAUCGGAAAAAAAGGGAAAAAAAGGGGAAAAAAAGGAAAGUAUUAUGUUACGCCGUUCGGAUCUGUGGAAUUCUCGGGUGUCAAGG | -0.00719

Single results of other studies
Substance | target | assay | test system | setting | how to read | measurement | value
PhoQ, residues 284 288 289 292 302 303 TAVSDG | PhoP, residues 12 14 15 18 19 SGWQI (Escherichia coli, UniProt P23836) | Sort-seq, item: YFP reporter | E. coli | PhoQ-PhoP variant library, added: 10 µM Mg2+ | baseline: high Mg2+ state, higher = stronger signaling | fold induction | 1.33
